Assay results of several laboratories.
A part holds a random share of what one study measured.

Set 1
Target: Interferon regulatory factor 5, full length, phosphomimetic (IRF5, Homo sapiens, UniProt Q13568-2, residues 1-514, S451D/S453D/S456D/S462D)
Method: protein-binding microarray
Form: double-stranded DNA, one strand shown
Sample: in vitro
Concentration: 940 nM top
Notes: 60-bp whole probe
Added: salmon DNA 0.4 mg/ml
Baseline: random background probes
Direction: higher = stronger binding
Endpoint: fitted relative affinity
All sequences stand within: GCCTAGCAC … GTCTTGATTCGCTTGACGCTGCTG
TCACTTCTCTAACCTCTCACTGTGCTA: 1.67 z-score
TTGTCTCTGTCCCTGTTTCTGTGCTAG: 3.14 z-score
GACGGCCTCGGTCTCGGGACGTGCTAG: -0.032 z-score
GACGGATTGGGACTGGGGACGTGCTAG: -0.334 z-score
GACGATATGGGGTTTCGAGACGTGCTA: 2.06 z-score
TTAGGTTTCCTACTGCTTTAGTGCTAG: 0.769 z-score
TTTGCTCTGTGCATAGGCCTGTGCTAG: -0.429 z-score
TTAGAACTGAGACTGGAGTAGTGCTAG: -0.0438 z-score
TAGGCTCTGTGCTTTCCTGATGTGCTA: -0.13 z-score
GACGATATCGGGTATCGAGAGGTGCTA: 1.17 z-score
GACTCTTCAGCACTCGGGTCGTGCTAG: 0.00492 z-score
GACGAACAGAGTATCGAGACGTGCTAG: 0.646 z-score
CAAAGAAAAAGAAAAAAAAAGGTGCTA: -0.223 z-score
TCTATCTGCAGACTCTCACAGTGCTAG: 0.902 z-score
GACGGTTTCGGTATCGGGATGTGCTAG: 13.1 z-score
TTAGATATCGGGTTTTGATTAGTGCTA: 0.676 z-score
TTAGATCTCAGTTTCGATTCGTGCTAG: 7.62 z-score
TTAGATTACGGGACTGGATTAGTGCTA: -0.418 z-score
TCATGTTTTCATTTTATACTGTGCTAG: 1.29 z-score
TTAGGACGGGACACTGGGTTAGTGCTA: -0.468 z-score
GACGGACTGGGGTATCGGAACGTGCTA: 0.783 z-score
GACGGACTGCTTACCCTGACGTGCTAG: -0.218 z-score
GAATGTGTCTTAAATAGGAGAGTGCTA: -0.191 z-score

Set 2
Target: Histone acetyltransferase KAT6A, both winged helices, GST fusion (KAT6A, Homo sapiens, UniProt Q92794, residues 1-181)
Method: protein binding microarray
Form: double-stranded DNA, one strand shown
Sample: in vitro
Concentration: not given
Notes: 8-mer, flanks averaged, mean of 2 arrays, mostly near background
Baseline: not given
Direction: higher = stronger binding
Endpoint: E-score
Construct (chain): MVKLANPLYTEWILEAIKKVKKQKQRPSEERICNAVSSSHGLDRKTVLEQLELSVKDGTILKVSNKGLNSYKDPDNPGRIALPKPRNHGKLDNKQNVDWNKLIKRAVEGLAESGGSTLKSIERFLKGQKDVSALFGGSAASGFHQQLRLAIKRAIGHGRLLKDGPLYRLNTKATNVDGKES
CCGGCCAG: 0.243
AAAAGGAT: -0.188
GAGGGCTA: -0.114
GCTGAGAA: -0.264
CCTTCTGA: -0.244
AACACCGG: 0.221
GCCGGCAA: 0.309
ATTATGGC: 0.00168
GTTCGTAA: -0.0927
AGGGCGAC: 0.0178
AATGTTTC: 0.0777
ATAGATTG: -0.124
CGCGACCA: 0.286
AGCTCTCC: -0.168
ACCCCAGT: -0.291
CTCGTATC: -0.12
CGTTATCA: 0.0495
GGACATAA: -0.0178
AGAGTTTC: -0.153
ACGATGGG: -0.136
ATTTTCAC: 0.0158
CCCGTCAA: 0.251
GTGGTATA: -0.118

Set 3
Target: RNA binding protein fox-1 homolog 2, RRM domain, GST-SBP tag (RBFOX2, Homo sapiens, UniProt O43251-10, residues 100-194)
Method: RNA Bind-n-Seq
Form: RNA
Sample: in vitro
Concentration: 365 nM
Notes: natural RNA segment, single round, ends assumed
Baseline: no-protein control
Direction: higher = stronger binding
Endpoint: RBNS enrichment (R)
Target sequence (chain): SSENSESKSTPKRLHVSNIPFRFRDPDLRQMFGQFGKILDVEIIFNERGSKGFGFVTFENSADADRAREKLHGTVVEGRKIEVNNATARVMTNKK
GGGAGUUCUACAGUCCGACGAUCUUUUUGUAGUUUUGGUAUUUAAAGCAAAAAAACGAAAAACAAAAAACAAAAACAAACCUUUUGGUAACUGUGCACUGUGUCCUUUAGCCAGGGCCGUGCCAACUUAUGAAUGGAAUUCUCGGGUGCCAA: 0.441
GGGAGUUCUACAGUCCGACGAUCUGUCAAGGCAGAAUAUUACUGAGAAUGAUCCUGUUCAACCUCCUAGUGCCUCUACUGAAUUAUUCCUCUUUUAAAUGGUUAAUGAACCAAUAAUUUUUAAAUCAUACCAAUGGAAUUCUCGGGUGCCAA: 0.532
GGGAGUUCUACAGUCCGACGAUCGGAUAGCCGUGGCUUCAUUUAUCGUUUGCACCCAGGAGGCCUUGUAGUCUUCCAAUUGCAGGAGAUCAGCCCUACAGUGUAUUCUACGUGAACCAACAGGGCCUGGCCUUUGGAAUUCUCGGGUGCCAA: 0.391
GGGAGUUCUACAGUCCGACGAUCCUGGAGGAAGAAGACACAUUCCUAGUUCCCCGUGAACUUCCUUUGACUUAUUGUCCCCACUAAAACAAAACAAAAAACUUUUAAUGCCUUCCACAUUAAUUAGAUUUUCUUGGAAUUCUCGGGUGCCAA: 0.695
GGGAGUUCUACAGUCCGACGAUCUUUAUACUUUAAACCCCGCUCCUCAUGGCCUUGGCCCUUUCUGAAGCUGCUUCCUCUUAUAAAAUAGCUUUUGCCGAAACAUAGUUUUUUUUUAGCAGAUCCCAAAAUAUUGGAAUUCUCGGGUGCCAA: 0.541
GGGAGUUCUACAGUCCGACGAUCGUGAACAUGCCGUAACUCUGUGACUGCAUUGUAAGUGCAGUGGGGGUAAGCAGUCCUGUGAGUGGCGCAUGAACGCUGGAGCUUAUUCCGCCGCCUGCCCCAGUGUGGGGUGGAAUUCUCGGGUGCCAA: 1.51
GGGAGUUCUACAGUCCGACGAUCUGUCUCUAAAAGAAAAAAGAAUUAACAUCUUAUUUUCUUAGAUUUUAAGAGAGAGUCUCUGGCAAGACCCCCCUCAUCAGUUCUAAUCAUUUUAGAAGUAGACAGAAAAAUGGAAUUCUCGGGUGCCAA: 0.44
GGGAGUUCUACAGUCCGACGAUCAGAAGCCCUUUGCCAUCGCCAAGGAGUAGGGCACAGGGACAUCUUUCUUUGAGUGACCGUCUGUGCAGGCCCUGUAGUCCGCCACAGGGCUCUGAGCUGCACUGGCCCCGUGGAAUUCUCGGGUGCCAA: 0.193
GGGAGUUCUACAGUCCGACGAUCUCACUGUUUUUCACUUUUCACUUCUGGCUUUUUUGUGGCCCAAGGCCAAUAUAGGAUUAAUAUCUGUGUUCCAGCUUCAGCCAGAACGAUAUGUCUGUCCAUCUUUCUCCUGGAAUUCUCGGGUGCCAA: 0.524
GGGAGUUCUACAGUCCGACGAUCCUUCCAAGCUUUUGGAGUUUCUCUCGUAUCGUAUUUAAAGAUUCUGCCUUCCCUAGUAGUAGGGACUGACAGAAUACACUUAACACAAACCUCAAGCUUUACUGACUUCAUGGAAUUCUCGGGUGCCAA: 0.273
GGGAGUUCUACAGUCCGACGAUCGCAUGGACCAGCACCACUGCCUGGCCAUAACUUCAGUGUCUCCUAACUGGGUGUGCUUUAUAGCUCCAGCUUCCUGGGAGGAGCAGUGGAGCCAGCUCCCUCACCCCUUCUGGAAUUCUCGGGUGCCAA: 0.415
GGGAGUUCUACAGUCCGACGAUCGCCACCACAUGGCCCAGCAUCUCUGCCAAACACAGUUGCUUCUAGUCUGGCCAGUGCCAAGAGACAACAUAACAUGGCAGGUGGAUGGUGUCGGUGUCAUUGUCUCAGCUUGGAAUUCUCGGGUGCCAA: 0.283

Set 4
Target: Phosphate system positive regulatory protein PHO4, full length, GST-tagged (PHO4, Saccharomyces cerevisiae, UniProt P07270, residues 1-312)
Method: competition protein-binding microarray
Form: double-stranded DNA, one strand shown
Sample: in vitro
Concentration: 2 µM
Notes: whole 60-bp probe, lowest competitor level
Added: Cbf1 competitor, 0.05 µM
Direction: higher = stronger binding
Endpoint: fluorescence intensity
Residues (chain): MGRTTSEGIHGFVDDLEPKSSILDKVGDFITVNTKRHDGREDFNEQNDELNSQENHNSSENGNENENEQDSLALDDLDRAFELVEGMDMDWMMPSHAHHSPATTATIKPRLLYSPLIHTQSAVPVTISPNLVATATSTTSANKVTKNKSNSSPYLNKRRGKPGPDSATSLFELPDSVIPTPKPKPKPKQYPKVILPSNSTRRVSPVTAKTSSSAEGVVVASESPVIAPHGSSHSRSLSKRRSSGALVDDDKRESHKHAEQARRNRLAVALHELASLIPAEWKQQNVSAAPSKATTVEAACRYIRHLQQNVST
CGTAATTGACATGAACACATGCATTATATTTTTTGTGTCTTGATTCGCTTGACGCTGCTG: 10500 a.u.
TGCATTCTTCAATATCAGGTGAAATGTGTCTTGCCTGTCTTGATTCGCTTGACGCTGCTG: 4860 a.u.
ATAACAAGAGACTGTCATGAAATTAATGTCTTACAAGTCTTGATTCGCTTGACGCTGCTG: 3000 a.u.
TAAGAGGAATGGGTGCTCGTGTCCTGGTTACCGAAAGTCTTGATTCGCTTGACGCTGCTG: 9080 a.u.
TGCCATCATCAATTGCACGTTTTCAAGTATTTATAAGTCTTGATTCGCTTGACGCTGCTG: 13500 a.u.
AACCAGTCCAAAAAGTACGTGCAATAAAAGAAGTTGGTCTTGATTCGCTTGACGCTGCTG: 7820 a.u.
TGAAAAGATGAATCGCACGTGAACCATATTATAATCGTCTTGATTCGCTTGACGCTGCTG: 13700 a.u.
GCCTTCGACAAAAAGGGCGTGCAAACTCAACAGCGGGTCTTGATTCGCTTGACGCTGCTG: 7330 a.u.
CGGGGTTAAGTTTGGTCCGTGGGTGGCTTGCAGCAGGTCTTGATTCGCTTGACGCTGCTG: 6590 a.u.
CTAACGAAGGTTTGAGGAGTGGGTGACAAGCCAAGTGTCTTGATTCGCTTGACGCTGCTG: 3790 a.u.
GTTTAGAATCCCCATCACGTACGAGTTGAAGAATTCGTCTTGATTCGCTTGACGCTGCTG: 4420 a.u.
CTTTCCCGATCTTTTCACGTGGGATTAGCACATTTGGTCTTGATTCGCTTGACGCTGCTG: 15100 a.u.
TCAACAATATTGTCCCACGCAGCTATCCTGTCTGTGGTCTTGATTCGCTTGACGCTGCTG: 9010 a.u.
CGTCCTAGTGATTGCCACGTGTTTTCCATGAGGAAGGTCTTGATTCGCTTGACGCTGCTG: 18900 a.u.
AAAGTACACAGGGTCCATGTGCTACACATACGAAGAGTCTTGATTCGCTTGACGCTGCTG: 10600 a.u.
AAATTACTAAGTTGGGTTGTGGGTGACGCCGTATGAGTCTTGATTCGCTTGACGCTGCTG: 4560 a.u.
CTTTCCCGATCTTGTCACGAGACTTTAGCACATTTGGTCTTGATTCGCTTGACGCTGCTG: 7320 a.u.
TGAATAGCAGCATTCAATGTGACGAACAACCCGGAGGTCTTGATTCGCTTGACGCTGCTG: 3940 a.u.
GTTGTTCCATGCTCAGTTGTGATATTGAATGCCCTCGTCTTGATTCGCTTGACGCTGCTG: 5260 a.u.

For quick reference, copied from above (set 1):
GACGGCCTCGGTCTCGGGACGTGCTAG: -0.032 z-score
TTAGGACGGGACACTGGGTTAGTGCTA: -0.468 z-score
GAATGTGTCTTAAATAGGAGAGTGCTA: -0.191 z-score
TTAGGTTTCCTACTGCTTTAGTGCTAG: 0.769 z-score
GACGATATCGGGTATCGAGAGGTGCTA: 1.17 z-score
TTAGATTACGGGACTGGATTAGTGCTA: -0.418 z-score
TCACTTCTCTAACCTCTCACTGTGCTA: 1.67 z-score
TTGTCTCTGTCCCTGTTTCTGTGCTAG: 3.14 z-score
GACGGACTGGGGTATCGGAACGTGCTA: 0.783 z-score
TTAGATATCGGGTTTTGATTAGTGCTA: 0.676 z-score
GACGGTTTCGGTATCGGGATGTGCTAG: 13.1 z-score
GACGATATGGGGTTTCGAGACGTGCTA: 2.06 z-score
TCATGTTTTCATTTTATACTGTGCTAG: 1.29 z-score
